Measured values from different studies.
Lines come from different studies, so protocols differ. ± gives the spread as reported.

The IC50 of `Clc1nc2ccccc2cc1-c1nc2cc(Br)ccc2[nH]1` is reported as 30 µM (BEL-7404; cell growth or viability, MTT; 48 h).
With `COc1ccc2cc3[n+](cc2c1OCc1cn(Cc2ccccc2Br)nn1)CCc1cc2c(cc1-3)OCO2` the IC50 was 24.3 µM (SMMC-7721; cell growth or viability, MTT).
For `O=C(/C=C/c1ccc2c(c1)C(=O)N(CCCc1ccccc1)CC2)NO`, the IC50 was 0.57 ± 0.23 µM (GES1; cell growth, SRB; 72 h).
For `CCCCCC(O)/C=C/C=O` (centres unmarked), the IC50 was over 100 µM (MDA-MB-231 proteome; cysteine probe labelling, isoTOP-ABPP; most cysteines, extrapolated).
For `CN1CCN(c2ccc(-c3ccc4[nH]c5ncc(/C=C/c6ccccc6)cc5c4c3)cc2)CC1`, the IC50 was 1.1 µM (Ba/F3 NPM-ALK; cell proliferation, [3H]-thymidine incorporation).
`N#Cc1cccc(-c2ccc(=O)n(Cc3cccc(-c4ncc(OCC5CCN(CCCCC(=O)Nc6ccc7c(c6)C(=O)N(C6CCC(=O)NC6=O)C7=O)CC5)cn4)c3)n2)c1` (centres unmarked) has an IC50 of 0.00398 µM (EBC-1; cell growth or viability, CCK-8; 72 h).
With `O=C(NO)c1ccc(Cn2sc3ccccc3c2=O)cc1` the IC50 was 2.1 µM (MM1.S; cell growth or viability, ATP luminescence; 72 h).
`CC(=O)Oc1ccccc1/C=C/C(=O)Nc1nc(=O)n([C@@H]2O[C@H](C)[C@@H](OC(C)=O)[C@H]2OC(C)=O)cc1F` has an IC50 of 26.9 µM (BXPC-3; cell growth or viability, MTT; 72 h).
`CCCC(CCC)C(=O)[O][Pt]1([O]C(=O)C(CCC)CCC)[O]C(=O)C(=O)[O]1.NC1CCCCC1N` gave an IC50 of 14.4 µM (BXPC-3; cell growth or viability).
With `N=C(N)NCCC[C@@H](NC(=O)[C@H](Cc1c[nH]cn1)NC(=O)[C@H](CO)NC(=O)[C@H](Cc1c[nH]c2ccccc12)NC(=O)[C@H](Cc1c[nH]cn1)NC(=O)[C@@H]1CCC(=O)N1)C(=O)N[C@@H](Cc1c[nH]c2ccccc12)C(=O)N[C@@H](Cc1ccc(O)cc1)C(=O)N1CCC[C@H]1C(=O)NCC(N)=O` the IC50 was 0.0009 ± 0.0004 µM (WPE-1-NB26-3; cell growth, inhibitor, sulforhodamine B staining; four days).
`CO[C@@H]1[C@@H](O[C@@H]2O[C@H](C)[C@@H](O[C@H]3C[C@@](C)(O)[C@@H](OC(=O)c4ccccc4)[C@H](C)O3)[C@H](N(C)C)[C@H]2O)[C@@H](CC=O)C[C@@H](C)[C@@H](O[C@H]2CC[C@H](N(C)C)[C@@H](C)O2)/C=C/C=C/C[C@@H](C)OC(=O)C[C@H]1O` has an IC50 of 13.1 µM (GES1; cell growth or viability, CCK-8; 72 h).
For `Oc1cccc2[nH]c(/C(=N/OCc3ccccc3)c3cc4cccc(O)c4o3)nc12`, the IC50 was 42.3 µM (NCI-H441; cell growth or viability, ATP luminescence; 72 h).
`C[C@]12CC/C(=N/O)C=C1CCC1C2CC[C@]2(C)/C(=C/c3ccccn3)CCC12` (some centres unmarked) has an IC50 of over 50 µM (human Fibroblast; cell growth or viability, resazurin; 72 h).
The IC50 of `Cc1cc2nc(-c3cc4ccccc4nc3Cl)[nH]c2cc1C` is reported as over 100 µM (L02; cell growth or viability, MTT; 48 h).
The IC50 of `O=C1/C(=C/c2ccccc2F)CNC/C1=C\c1ccccc1F` is reported as 2.1 µM (GES1; cell growth or viability, MTT; 72 h).
The IC50 of `CCCCCCCCCCCCn1c(-c2cccnc2)nc(-c2ccc(C)cc2)c1-c1ccc(C)cc1` is reported as over 100 µM (BT-474; cell growth or viability, SRB; 24 h).
With `CCCCc1ccc(C(=O)O[C@H]2[C@H](C)O[C@@H](O[C@H]3[C@H](N(C)C)[C@@H](O)[C@H](O[C@H]4[C@@H](CC=O)C[C@@H](C)[C@@H](O[C@H]5CC[C@H](N(C)C)[C@@H](C)O5)/C=C/C=C/C[C@@H](C)OC(=O)C[C@@H](O)[C@@H]4OC)O[C@@H]3C)C[C@@]2(C)O)cc1` the IC50 was 2.75 µM (GES1; cell growth or viability, CCK-8; 72 h).
`NC(CSSCC(N)C(=O)N1CCn2cc(-c3ccccc3)nc2C1CC1CCCCC1)C(=O)N1CCn2cc(-c3ccccc3)nc2C1CC1CCCCC1` (centres unmarked) has an IC50 of 11.9 ± 1 µM (MP41 GNA11 Q209L; cell growth; 72 h).
`O=C1NCC(Cc2ccccc2)N(CC2CCCN2CC(CC2CCCCC2)N2CC(Cc3ccc(O)cc3)N(CCc3ccccc3)C(=O)C2=O)C1=O` (centres unmarked) gave an IC50 of 4 µM (SK-MEL-2; cell growth or viability, ATP luminescence; 72 h).
`CN1CCCNC(=O)CCC(=O)NCCCN(C)CCCNc2cccc3c2C(=O)c2cccc(c2C3=O)NCCC1` has an IC50 of over 20 µM (Ca9-22; cell growth or viability, CCK-8; 48 h).
`CC(=O)c1cnc(N)nc1N1CC[C@H]1c1nn2ccc(Cl)c2c(=O)n1-c1ccccc1` has an IC50 of 0.009 µM (CD4+ T; IL-2 release, inhibitor).
`CC/C(=C(\c1ccc(O)cc1)c1ccc(OCCN(C)CCOCCOCCOCCOCCOCCOCCOCCOCCOCCN(C)CCOc2ccc(/C(=C(/CC)c3ccccc3)c3ccc(O)cc3)cc2)cc1)c1ccccc1` gave an IC50 of 2.1 µM (MCF7 (ER-positive); cell growth; 96 h).
The IC50 of `CC(=O)C1=C(C)NC(SCC(=O)c2ccccc2)=C(C#N)C1c1sccc1C` (centres unmarked) is reported as 1.86 ± 0.26 µM (HeLa with GR; NF-κB reporter transrepression; with: TNF-α 5 ng/mL; reference: dexamethasone 10 µM).
The IC50 of `Cc1cc(C)c([N+]#[C][Pt-]([Cl])([Cl])=[C](Nc2cccc(CN[C](Nc3c(C(C)C)cccc3C(C)C)=[Au][Cl])c2)Nc2c(C)cc(C)cc2C)c(C)c1` is reported as over 100 µM (MRC5; cell growth or viability).
`C(=C\c1cnc2[nH]c3ccc(-c4ccc(CN5CCOCC5)cc4)cc3c2c1)/c1ccccc1` has an IC50 of 1.6 µM (Ba/F3 NPM-ALK; cell proliferation, [3H]-thymidine incorporation).
`Cc1cc(C)c([N+]#[C][Pt-]([Cl])([Cl])=[C](Nc2ccc(CN[C](Nc3c(C)cc(C)cc3C)=[Au][Cl])cc2)Nc2c(C)cc(C)cc2C)c(C)c1` has an IC50 of over 100 µM (MRC5; cell growth or viability).
`CC(C)=CCc1c(O)cc2oc3cc(O)c(O)c(CC=C(C)C)c3c(=O)c2c1O` gave an IC50 of 6.57 µM (SMMC-7721; cell growth or viability; 48 h).
The IC50 of `CCCCCCCCn1c(-c2cccnc2)nc(-c2ccc(C)cc2)c1-c1ccc(C)cc1` is reported as 39.9 µM (BT-474; cell growth or viability, SRB; 48 h).
With `Clc1nc2cc3c(cc2cc1-c1nc2cc(Br)ccc2[nH]1)OCO3` the IC50 was over 100 µM (L02; cell growth or viability, MTT; 48 h).
`CC(C)c1ccc(/C=C/C(=O)NC(=O)N[C@@H]2O[C@H](CO)[C@@H](O)[C@H](O)[C@H]2O)cc1` has an IC50 of 22 µM (human T-lymphocyte; cell growth or viability; 72 h).
The IC50 of `COC1CCC(Nc2nc(-c3nccn3C)nc3sc(-c4ccn(C)n4)c(-c4ccccc4)c23)C1` (centres unmarked) is reported as about 1 µM (MIA PaCa-2 (KRAS G12C); Western blot, item: phospho-MEK and phospho-ERK1/2; 6 h, with: EGF 15 min).
For `CO[C@@H]1[C@@H](O[C@@H]2O[C@H](C)[C@@H](O[C@H]3C[C@@](C)(O)[C@@H](OC(=O)C4CCCCC4)[C@H](C)O3)[C@H](N(C)C)[C@H]2O)[C@@H](CC=O)C[C@@H](C)[C@@H](O[C@H]2CC[C@H](N(C)C)[C@@H](C)O2)/C=C/C=C/C[C@@H](C)OC(=O)C[C@H]1O`, the IC50 was 14.5 µM (GES1; cell growth or viability, CCK-8; 72 h).
For `CC(C)c1cccc(C(C)C)c1[N+]#[C][Pt-]([Cl])([Cl])=[C](Nc1cccc(CN[C](NC(C)(C)C)=[Au][Cl])c1)Nc1c(C(C)C)cccc1C(C)C`, the IC50 was over 100 µM (MRC5; cell growth or viability).
For `CCCCCCCCn1c(-c2cccnc2)nc(-c2ccccc2)c1-c1ccccc1`, the IC50 was 29.2 µM (BT-474; cell growth or viability, SRB; 24 h).
The IC50 of `C=C[CH2][Pd-]([Cl])[Cl].CC(C)c1cccc(C(C)C)c1-n1c[n+](-c2c(C(C)C)cccc2C(C)C)c2c1-c1cccc3cccc-2c13` is reported as 17 µM (NTERA2; cell growth or viability; 72 h, 3D culture).
For `CC[C@@]12CCc3[nH]c4ccccc4c3CCN(C[C@H]3O[C@H]31)C2`, the IC50 was 56.7 µM (BV-2; cell growth or viability, MTT).
`COc1ccc(Cn2cc(COc3c(OC)ccc4cc5[n+](cc34)CCc3cc4c(cc3-5)OCO4)nn2)cc1` has an IC50 of 17.4 µM (SMMC-7721; cell growth or viability, MTT).
With `COc1ccc2nc(Cl)c(-c3nc4cc(C)c(C)cc4[nH]3)cc2c1` the IC50 was 39.9 µM (BEL-7404; cell growth or viability, MTT; 48 h).
`CC(=O)OC[C@H]1O[C@@H](NC(=O)CCCc2ccc3c(c2)CCCC3)[C@H](OC(C)=O)[C@@H](OC(C)=O)[C@@H]1OC(C)=O` has an IC50 of 116 µM (human T-lymphocyte; cell growth or viability; 72 h).
With `CC1=C2[O][Ru-]([Cl])[O+]=C2C=CN1CCCCCCCCCCCCN1C=CC2=[O+][Ru-]([Cl])[O]C2=C1C.Cc1ccc(C(C)C)cc1.Cc1ccc(C(C)C)cc1` the IC50 was 1.1 ± 0.8 µM (5637-oxo oxoplatin-resistant; crystal violet; 96 h).
For `Cc1ccc2c(c1)C(=O)[C@](C)([N+](=O)[O-])[C@@H](CC(=O)NC13CC4CC(CC(C4)C1)C3)O2`, the IC50 was 19.2 µM (PC-3M; cell growth or viability, SRB; 96 h).
`N[C@@H](Cc1c[nH]c2ccccc12)C(=O)NC(CC(=O)N[C@@H](Cc1ccccc1)C(=O)O)c1ccc2ccccc2c1` (some centres unmarked) has an IC50 of over 100 µM (BT-474; cell growth or viability, ATP luminescence; 72 h).
The IC50 of `CC(=O)OC[C@H]1O[C@@H](NC(=O)NC(=O)/C=C/c2ccc(C(C)C)cc2)[C@H](OC(C)=O)[C@@H](OC(C)=O)[C@@H]1OC(C)=O` is reported as 16 µM (human T-lymphocyte; cell growth or viability; 72 h).
For `[Fe+2].c1cc[cH-]c1.c1ccc(P(=NCc2ccccn2)(c2ccccc2)[c-]2cccc2)cc1`, the IC50 was over 50 µM (HEK-293T; cell growth or viability, MTT; 74 h).
`COc1cc2c(cc1C(C)(C)O)CCC1C(C)(C)c3nc(C)ncc3C[C@]21C` (mixture of isomers) has an IC50 of over 200 µM (human Epithelial cell; cell growth or viability, SRB; 24 h).
`COc1c(OC(C)=O)cc2oc3cc(OC(C)=O)c(CC=C(C)C)c(O)c3c(=O)c2c1CC=C(C)C` has an IC50 of 13.6 µM (SMMC-7721; cell growth or viability; 48 h).
`Cc1ccc2nc(Cl)c(-c3nc4cc(Cl)c(Cl)cc4[nH]3)cc2c1` has an IC50 of over 100 µM (L02; cell growth or viability, MTT; 48 h).
`N#Cc1cccc(-c2ccc(=O)n(Cc3cccc(-c4ncc(OCC5CCN(CC(=O)NCCOCCOCCNc6ccc7c(c6)C(=O)N(C6CCC(=O)NC6=O)C7=O)CC5)cn4)c3)n2)c1` (centres unmarked) gave an IC50 of 0.00555 µM (EBC-1; cell growth or viability, CCK-8; 72 h).
With `Cc1ccc2nc(Cl)c(-c3nc4cc(Br)ccc4[nH]3)cc2c1` the IC50 was over 100 µM (BEL-7404; cell growth or viability, MTT; 48 h).
`O=C1NCCN1CC(O)Cn1c2ccc(F)cc2c2cc(F)ccc21` (centres unmarked) gave an IC50 of at most 1 µM (U2OS Per2-dLuc; Per2 reporter gene, repressor).

Some of these lines once more:
With `CC1=C2[O][Ru-]([Cl])[O+]=C2C=CN1CCCCCCCCCCCCN1C=CC2=[O+][Ru-]([Cl])[O]C2=C1C.Cc1ccc(C(C)C)cc1.Cc1ccc(C(C)C)cc1` the IC50 was 1.1 ± 0.8 µM (5637-oxo oxoplatin-resistant; crystal violet; 96 h).
For `Cc1ccc2c(c1)C(=O)[C@](C)([N+](=O)[O-])[C@@H](CC(=O)NC13CC4CC(CC(C4)C1)C3)O2`, the IC50 was 19.2 µM (PC-3M; cell growth or viability, SRB; 96 h).
`N[C@@H](Cc1c[nH]c2ccccc12)C(=O)NC(CC(=O)N[C@@H](Cc1ccccc1)C(=O)O)c1ccc2ccccc2c1` (some centres unmarked) has an IC50 of over 100 µM (BT-474; cell growth or viability, ATP luminescence; 72 h).
The IC50 of `CC(=O)OC[C@H]1O[C@@H](NC(=O)NC(=O)/C=C/c2ccc(C(C)C)cc2)[C@H](OC(C)=O)[C@@H](OC(C)=O)[C@@H]1OC(C)=O` is reported as 16 µM (human T-lymphocyte; cell growth or viability; 72 h).
For `[Fe+2].c1cc[cH-]c1.c1ccc(P(=NCc2ccccn2)(c2ccccc2)[c-]2cccc2)cc1`, the IC50 was over 50 µM (HEK-293T; cell growth or viability, MTT; 74 h).
